Measured values from different studies.
Parts stem from different laboratories: compare values within a part only. Positions count from the first letter of the parent shown.

Series 1
Target: ATF2, bZIP domain (human)
Technique: DHFR protein complementation
Matrix: yeast
Notes: single substitutions, most at no-binding floor
Baseline: wild-type JUN-FOS pair
Reading: higher = stronger binding
Starting sequence: JUN, bZIP domain (human); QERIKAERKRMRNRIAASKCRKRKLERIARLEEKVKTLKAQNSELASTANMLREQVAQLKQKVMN; partner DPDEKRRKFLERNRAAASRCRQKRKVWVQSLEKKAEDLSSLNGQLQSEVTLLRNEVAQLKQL
Change | binding fitness
A46Q | -1.33 natural log
Q41T | -1.53 natural log
E54W | -1.47 natural log
S47R | -1.24 natural log
E54Q | -1.23 natural log
R30Y | -1.25 natural log
E32H | -1.41 natural log
A49R | -1.26 natural log
E32L | -1.37 natural log
V35Q | -1.54 natural log
T37C | -1.33 natural log
L52V | -1.49 natural log
M51S | -1.46 natural log
M51L | -1.3 natural log
S47F | -1.38 natural log
K34D | -1.19 natural log
E54I | -1.44 natural log
S47H | -1.38 natural log
N42P | -1.49 natural log
L38Y | -1.45 natural log
K39N | -1.42 natural log
M51Q | -1.25 natural log
L38R | -1.43 natural log
N42C | -1.4 natural log
E33L | -1.37 natural log

Series 2
Target: CCNB1, cyclin fold, Cln2 fusion (human)
Technique: yeast growth competition, sequencing
Matrix: yeast
Notes: strong parent motif
Baseline: not given
Reading: higher = stronger binding
Starting sequence: RBL2 docking peptide (human); STTRRRLFVENDS
Change | normalised enrichment score
F8Q | 0.366
T2I | 0.595
S13H | 0.764
S1A | 1.33
R5N | 0.174
L7C | 0.325
R6C | 0.993
R4P | 0.365
D12T | 0.0423
F8S | 2.57
S13A | 0.927
R4L | -0.195
V9M | 0.708
F8G | 0.466
R6G | -0.121
S1M | 0.918
L7D | 0.61
R4Q | 1.05
F8W | 0.622
D12Q | 0.441
S1R | 1.3
D12Y | 1
V9K | 0.742
S1D | 2.07
R6I | 0.347

Series 3
Target: ABI1, truncated, D143A, DHFR fusion (Arabidopsis thaliana)
Technique: DHFR PCA, deep sequencing
Matrix: yeast
Notes: methotrexate growth selection, single substitutions
Together with: (+)-ABA 0.032 µM
Baseline: wild-type fitted maximum
Reading: higher = stronger binding
Starting sequence: PYL1, truncated, DHFR fusion (Arabidopsis thaliana); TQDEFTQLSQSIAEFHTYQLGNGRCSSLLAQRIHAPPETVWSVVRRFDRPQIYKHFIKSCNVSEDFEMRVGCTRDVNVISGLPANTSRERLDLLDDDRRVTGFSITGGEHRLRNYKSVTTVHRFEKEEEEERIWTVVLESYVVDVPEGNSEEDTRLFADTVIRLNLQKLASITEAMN
Change | relative binding score
R45S | 0.414%
D159H | -2.98%
G21V | 17.1%
Y115G | 2.94%
E147A | 20.4%
L91I | -1.11%
L28Y | -1.77%
L164Y | -2.09%
S117H | -6.92%
E109C | 12.4%
N149M | 49%
R132H | 39.7%
R98Y | 5.78%

Series 4
Target: Ras GTPase-activating protein-binding protein 1, C-terminal RGG region (G3BP1, Homo sapiens, UniProt Q13283)
Sequence of UniProt Q13283 (whole entry, looked up): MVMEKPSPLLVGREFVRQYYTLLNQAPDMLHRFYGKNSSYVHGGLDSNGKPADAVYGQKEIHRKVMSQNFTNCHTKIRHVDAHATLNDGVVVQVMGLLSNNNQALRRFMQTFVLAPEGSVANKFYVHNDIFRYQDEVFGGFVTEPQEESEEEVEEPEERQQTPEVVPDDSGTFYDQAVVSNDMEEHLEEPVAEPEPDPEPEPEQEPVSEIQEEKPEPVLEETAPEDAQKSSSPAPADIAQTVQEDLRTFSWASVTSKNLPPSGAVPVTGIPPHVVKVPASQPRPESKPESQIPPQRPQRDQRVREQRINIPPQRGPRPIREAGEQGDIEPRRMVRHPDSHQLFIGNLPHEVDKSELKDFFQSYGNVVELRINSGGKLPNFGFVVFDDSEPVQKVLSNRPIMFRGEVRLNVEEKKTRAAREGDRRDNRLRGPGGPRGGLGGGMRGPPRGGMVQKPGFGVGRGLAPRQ
Technique: RNA Bind-n-Seq
Form: RNA
Matrix: in vitro
Concentration: 1 µM
Notes: whole 134-nt RNA, ends assumed
Together with: 150 mM KCl
Baseline: input library
Reading: higher = stronger binding
Sequence | log2 enrichment
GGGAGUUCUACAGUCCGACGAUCUUAAAGAAAUGUCCACAAGUAACUUUGAAUCAUCUCCUGAAGUAGAAGAAAGGCCUGCUGUGUCUUUGACUCUUGAUCAGAGCCAGUCACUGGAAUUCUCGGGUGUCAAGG | -1.2
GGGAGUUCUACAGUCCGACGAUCUUUAAACUGAAGCCGCGGCCGAAAACGCCAAGAGAUUGAUGCUGUAGCUGCCCUGAGAUAACCAGGACUGUGGAAUCGGGAAGAGCUCAUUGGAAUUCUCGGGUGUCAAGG | -0.784
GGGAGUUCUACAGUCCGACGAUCCUGUGCUACACAUCGUAUGUACCGAAUCGGGGUUUGGGGUUUUUUUGGGGAAAAAAAGGGGAAAGUAUUAUGUUACGCCGUUCGGAUCUGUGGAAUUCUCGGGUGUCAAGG | 0.364
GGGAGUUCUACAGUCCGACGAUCCACAGACAACACGCACCCACACAGACACAGAGGGAAGGAGUUGGGAUGGGGACAGGGUGCACAGCAGGGCGGGGUAGGACCCCAGCCCCUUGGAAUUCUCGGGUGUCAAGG | -0.717
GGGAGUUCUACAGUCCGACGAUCUUUCUCUCACCAGGUACCAGGUCAUCAGUACACCAUCUGAUAUUUUCAUGGUGAUGGAAUAUGUCUCAGGAGGAGAGCUAUUUGAUUAUAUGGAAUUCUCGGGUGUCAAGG | -1.15
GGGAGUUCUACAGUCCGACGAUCUCCCUGAGACGGCGGGCAACAGCAUCGGCAGGAACGCCAUGGCCGUCCCCUCCCAGCUCUUACCUUACCAUCGACCUCACAGACGACACAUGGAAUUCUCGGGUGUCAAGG | -0.559
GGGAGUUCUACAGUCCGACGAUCUCCUGUGCUACACAUCGUAUGUACCGAAUCGGGGUUUUUGGGUUUUUGGGUUUUUGGGGAAAGUAUUAUGUUACGCCGUUCGGAUCUGCAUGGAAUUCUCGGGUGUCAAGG | 0.312
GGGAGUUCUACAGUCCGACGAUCAGUCCUGUGCUACACAUCGUAUGUACCGAAUCGGAAAAGGGGAAAAGGGGAAAAGGGGAAAGUAUUAUGUUACGCCGUUCGGAUCUGCACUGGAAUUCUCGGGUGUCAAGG | -0.182
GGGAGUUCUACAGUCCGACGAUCCUGUGCUACACAUCGUAUGUACCGAAUCAAACCCCCCCAAACCCCCCCAAACCCCCCCAAAAAAGUAUUAUGUUACGCCGUUCGGAUCUGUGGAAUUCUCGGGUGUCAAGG | -0.876
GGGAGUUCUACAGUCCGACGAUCCAAGUCCUGUGCUACACAUCGUAUGUACCGAAUCGGGUUUUGGGUUUUGGUUUUGGAAAGUAUUAUGUUACGCCGUUCGGAUCUGCACUUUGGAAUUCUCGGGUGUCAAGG | -1.6
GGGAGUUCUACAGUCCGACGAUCGUCCUGUGCUACACAUCGUAUGUACCGAAUCGGAAAAAAAGGUUUUUUUGGUUUUUGGAAAGUAUUAUGUUACGCCGUUCGGAUCUGCACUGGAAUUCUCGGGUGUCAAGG | -2.17
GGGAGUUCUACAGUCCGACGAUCCACAGACAACACGCACCCACACAGACACAGAGGGAAGGGGCUGGGAUGGGGACAGGGUGCACAGCAGGGCGGGGUAGGACCCCAGCCCCUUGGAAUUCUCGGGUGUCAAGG | -0.46
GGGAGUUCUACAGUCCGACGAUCCUCAAGUCCUGUGCUACACAUCGUAUGUACCGAAUCGUGUGUGUGUGUGUGUGUAAAGUAUUAUGUUACGCCGUUCGGAUCUGCACUUCCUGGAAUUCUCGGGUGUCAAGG | 0.563
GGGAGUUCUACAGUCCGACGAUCUGCUGGAGGCAAAAAAUGCCAGCCUGGCGUCGUCCAACAACGACUUGCAGGUGGCCGAGGAGCAGUACCAGAGGCUUAUGGCCAAGGUAGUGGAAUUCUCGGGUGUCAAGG | -2.57

Series 5
Target: UBE2Q2 UBC core domain (UniProt Q8WVN8)
Sequence of UniProt Q8WVN8 (whole entry, looked up): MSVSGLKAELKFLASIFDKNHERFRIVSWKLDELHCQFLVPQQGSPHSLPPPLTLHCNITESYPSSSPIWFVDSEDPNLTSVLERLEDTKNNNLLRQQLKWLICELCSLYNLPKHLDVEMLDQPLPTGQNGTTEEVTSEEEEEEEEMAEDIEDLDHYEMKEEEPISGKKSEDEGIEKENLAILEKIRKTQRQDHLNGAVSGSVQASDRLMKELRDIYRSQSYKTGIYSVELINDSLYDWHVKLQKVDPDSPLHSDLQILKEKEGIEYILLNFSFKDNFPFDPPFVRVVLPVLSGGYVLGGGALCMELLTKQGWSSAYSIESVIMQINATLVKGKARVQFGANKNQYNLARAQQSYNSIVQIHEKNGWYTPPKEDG
Technique: yeast two-hybrid
Matrix: yeast
Notes: mostly zero background
Baseline: not given
Reading: higher = stronger interaction
B1: VPS41 RING domain (UniProt P49754); chain KGVLVDEENICESCLSPILPSDAAKPFSVVVFHCRHMFHKECLPMPSMNSAAQFCNICSAKNRGPGSAI
B2: DTX4 RING domain (UniProt Q9Y2E6); chain QKVRHPPDEDCTICMERLTAPSGYKGPQPTVKPDLVGKLSRCGHVYHIYCLVAMYNNGNKDGSLQCPTCKTIYGVKTGTQ
B3: SH3RF2 RING domain (UniProt Q8TEC5); chain DDLTLLDLLECPVCFEKLDVTAKVLPCQHTFCKPCLQRVFKAHKELRCPECRTPVFSNIEAL
B4: RNF38 RING domain (UniProt Q9H0F5); chain PNNHQSEQTLCVVCMCDFESRQLLRVLPCNHEFHAKCVDKWLKANRTCPICRADASEVHRDS
B5: TRIM5 RING domain (UniProt Q9C035); chain LREVKLSPEGQKVDHCARHGEKLLLFCQEDGKVICWLCERSQEHRGHHTFLTEEVAREYQVKL
B6: TRIM4 RING domain (UniProt Q9C037); chain EAEDIQEELTCPICLDYFQDPVSIECGHNFCRGCLHRNWAPGGGPFPCPECRHPSAPAALRP
B7: TRIM24 RING domain (UniProt O15164); chain EAARLNLLDTCAVCHQNIQSRAPKLLPCLHSFCQRCLPAPQRYLMLPAPMLGSAETPPPVPAPGSPVSGSSPFATQVGVIRCPVCSQECAERHII
B8: TRIM43 RING domain (UniProt Q96BQ3); chain FSHAFQKELTCVICLNYLVDPVTICCGHSFCRPCLCLSWEEAQSPANCPACREPSPKMDFKT
B9: TRIM40 RING domain (UniProt Q6P9F5); chain LQKDNQEEGVCPICQESLKEAVSTNCGHLFCRVCLTQHVEKASASGVFCCPLCRKPCSEEVLG
Molecule | lacZ reporter activity
B1 (VPS41 RING domain) | 0
MPIRALCTICSDFFDHSRDVAAIHCGHTFHLQCLIQWFETAPSRTCPQCRIQVGKRTIIN (TRAIP RING domain (UniProt Q9BWF2)) | 0
B2 (DTX4 RING domain) | 0
B3 (SH3RF2 RING domain) | 0
B4 (RNF38 RING domain) | 0
B5 (TRIM5 RING domain) | 0
B6 (TRIM4 RING domain) | 0
FQGDVDEDLICPICSGVLEEPVQAPHCEHAFCNACITQWFSQQQTCPVDRSVVTVAHLRP (RNF41 RING domain (UniProt Q9H4P4)) | 0
VEPSEENSKDCVVCQNGTVNWVLLPCRHTCLCDGCVKYFQQCPMCRQFVQESFALC (CGRRF1 RING domain (UniProt Q99675)) | 0
PAELEVQASECVVCLEREAQMIFLNCGHVCCCQQCCQPLRTCPLCRQDIAQRLRIY (LRSAM1 RING domain (UniProt Q6UWE0)) | 0
DHGAVGQEMCCPICCSEYVKGEVATELPCHHYFHKPCVSIWLQKSGTCPVCRCMFPPPL (PJA1 RING domain (UniProt Q8NG27)) | 0
B7 (TRIM24 RING domain) | 0
B8 (TRIM43 RING domain) | 0
B9 (TRIM40 RING domain) | 0

Repeated from above (series 2):
Change | normalised enrichment score
L7C | 0.325
T2I | 0.595
R4Q | 1.05
V9M | 0.708
R4P | 0.365
D12Q | 0.441
V9K | 0.742
R6G | -0.121
S13A | 0.927
S1M | 0.918
D12T | 0.0423
R6I | 0.347
S1D | 2.07
R6C | 0.993
S1R | 1.3
